# Measurements from different studies.
# Each numbered part is a random draw from the data of one study; scales do not carry over between parts. Values joined by “and” are separate records of one study, mostly repeats; a detail may differ.
# UniProt Q9Y243, sequence (whole entry, looked up): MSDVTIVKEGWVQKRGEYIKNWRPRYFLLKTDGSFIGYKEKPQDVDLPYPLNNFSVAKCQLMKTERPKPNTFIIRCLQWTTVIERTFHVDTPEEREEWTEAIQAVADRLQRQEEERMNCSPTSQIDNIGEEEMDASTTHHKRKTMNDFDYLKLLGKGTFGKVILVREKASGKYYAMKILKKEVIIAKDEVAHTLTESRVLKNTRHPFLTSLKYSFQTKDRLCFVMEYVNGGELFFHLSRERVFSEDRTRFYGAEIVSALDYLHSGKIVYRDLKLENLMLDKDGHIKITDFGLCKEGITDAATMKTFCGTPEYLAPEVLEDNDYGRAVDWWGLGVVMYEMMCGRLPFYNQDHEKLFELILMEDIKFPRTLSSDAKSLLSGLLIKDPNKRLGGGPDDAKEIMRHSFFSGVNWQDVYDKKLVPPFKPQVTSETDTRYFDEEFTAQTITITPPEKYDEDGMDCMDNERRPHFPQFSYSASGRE
# UniProt Q13976, sequence (whole entry, looked up): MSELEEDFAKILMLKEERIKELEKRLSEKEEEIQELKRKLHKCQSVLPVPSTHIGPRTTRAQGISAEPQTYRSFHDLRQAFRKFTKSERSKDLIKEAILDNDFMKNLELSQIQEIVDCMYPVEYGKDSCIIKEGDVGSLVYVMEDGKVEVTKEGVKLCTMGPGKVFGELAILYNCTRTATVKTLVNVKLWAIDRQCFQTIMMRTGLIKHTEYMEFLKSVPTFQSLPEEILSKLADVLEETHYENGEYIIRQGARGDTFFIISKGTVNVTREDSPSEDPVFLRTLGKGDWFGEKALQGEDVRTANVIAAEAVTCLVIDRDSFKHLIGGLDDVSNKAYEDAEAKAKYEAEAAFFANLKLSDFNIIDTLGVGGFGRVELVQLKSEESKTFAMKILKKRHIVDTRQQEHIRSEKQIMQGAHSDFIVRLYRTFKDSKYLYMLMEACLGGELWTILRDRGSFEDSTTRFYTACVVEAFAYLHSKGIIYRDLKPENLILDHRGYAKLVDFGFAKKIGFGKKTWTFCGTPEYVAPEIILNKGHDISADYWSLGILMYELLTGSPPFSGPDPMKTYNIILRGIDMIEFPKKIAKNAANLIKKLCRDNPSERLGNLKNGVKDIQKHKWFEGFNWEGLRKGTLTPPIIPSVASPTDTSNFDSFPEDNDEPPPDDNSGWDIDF
# UniProt P50750, sequence (whole entry, looked up): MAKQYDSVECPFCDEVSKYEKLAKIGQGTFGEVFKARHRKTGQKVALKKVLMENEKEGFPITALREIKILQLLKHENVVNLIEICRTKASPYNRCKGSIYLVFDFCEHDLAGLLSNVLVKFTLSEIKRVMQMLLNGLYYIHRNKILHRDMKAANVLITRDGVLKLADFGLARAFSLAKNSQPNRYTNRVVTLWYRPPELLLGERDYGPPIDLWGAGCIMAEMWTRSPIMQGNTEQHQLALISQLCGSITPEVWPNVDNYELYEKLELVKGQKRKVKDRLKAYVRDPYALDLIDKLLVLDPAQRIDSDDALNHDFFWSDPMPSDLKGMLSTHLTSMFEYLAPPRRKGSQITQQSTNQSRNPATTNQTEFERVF
# UniProt Q12851, sequence (whole entry, looked up): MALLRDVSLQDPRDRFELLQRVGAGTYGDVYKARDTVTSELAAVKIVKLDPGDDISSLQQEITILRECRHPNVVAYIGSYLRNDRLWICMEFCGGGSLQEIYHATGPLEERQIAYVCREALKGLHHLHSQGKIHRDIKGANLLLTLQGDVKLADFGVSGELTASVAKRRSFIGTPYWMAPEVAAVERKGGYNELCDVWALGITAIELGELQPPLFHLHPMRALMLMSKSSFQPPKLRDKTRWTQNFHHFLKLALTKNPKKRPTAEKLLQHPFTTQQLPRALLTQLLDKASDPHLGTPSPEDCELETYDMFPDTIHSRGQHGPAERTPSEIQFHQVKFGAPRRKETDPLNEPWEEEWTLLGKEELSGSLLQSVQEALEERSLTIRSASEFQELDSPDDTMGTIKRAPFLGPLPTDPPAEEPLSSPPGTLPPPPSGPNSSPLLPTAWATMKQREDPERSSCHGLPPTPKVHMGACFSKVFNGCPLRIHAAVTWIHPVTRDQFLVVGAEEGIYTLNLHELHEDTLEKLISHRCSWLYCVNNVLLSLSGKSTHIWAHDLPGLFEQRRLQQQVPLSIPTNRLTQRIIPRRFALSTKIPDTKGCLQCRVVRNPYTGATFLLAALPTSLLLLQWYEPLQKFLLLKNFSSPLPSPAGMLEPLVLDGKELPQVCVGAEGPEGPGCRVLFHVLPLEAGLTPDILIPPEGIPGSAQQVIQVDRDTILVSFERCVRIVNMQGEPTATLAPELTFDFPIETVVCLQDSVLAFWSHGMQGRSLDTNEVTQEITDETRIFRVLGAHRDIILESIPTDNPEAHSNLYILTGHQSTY
# UniProt P48729, sequence (whole entry, looked up): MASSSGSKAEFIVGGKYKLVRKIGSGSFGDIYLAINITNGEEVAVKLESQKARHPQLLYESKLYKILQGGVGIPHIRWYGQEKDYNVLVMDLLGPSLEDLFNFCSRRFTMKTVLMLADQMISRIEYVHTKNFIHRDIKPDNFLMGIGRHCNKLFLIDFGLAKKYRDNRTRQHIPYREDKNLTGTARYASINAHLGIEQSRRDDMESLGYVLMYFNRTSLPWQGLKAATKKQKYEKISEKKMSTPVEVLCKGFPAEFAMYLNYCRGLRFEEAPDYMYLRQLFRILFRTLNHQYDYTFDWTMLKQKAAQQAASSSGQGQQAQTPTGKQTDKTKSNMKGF
# UniProt P10721, sequence (whole entry, looked up): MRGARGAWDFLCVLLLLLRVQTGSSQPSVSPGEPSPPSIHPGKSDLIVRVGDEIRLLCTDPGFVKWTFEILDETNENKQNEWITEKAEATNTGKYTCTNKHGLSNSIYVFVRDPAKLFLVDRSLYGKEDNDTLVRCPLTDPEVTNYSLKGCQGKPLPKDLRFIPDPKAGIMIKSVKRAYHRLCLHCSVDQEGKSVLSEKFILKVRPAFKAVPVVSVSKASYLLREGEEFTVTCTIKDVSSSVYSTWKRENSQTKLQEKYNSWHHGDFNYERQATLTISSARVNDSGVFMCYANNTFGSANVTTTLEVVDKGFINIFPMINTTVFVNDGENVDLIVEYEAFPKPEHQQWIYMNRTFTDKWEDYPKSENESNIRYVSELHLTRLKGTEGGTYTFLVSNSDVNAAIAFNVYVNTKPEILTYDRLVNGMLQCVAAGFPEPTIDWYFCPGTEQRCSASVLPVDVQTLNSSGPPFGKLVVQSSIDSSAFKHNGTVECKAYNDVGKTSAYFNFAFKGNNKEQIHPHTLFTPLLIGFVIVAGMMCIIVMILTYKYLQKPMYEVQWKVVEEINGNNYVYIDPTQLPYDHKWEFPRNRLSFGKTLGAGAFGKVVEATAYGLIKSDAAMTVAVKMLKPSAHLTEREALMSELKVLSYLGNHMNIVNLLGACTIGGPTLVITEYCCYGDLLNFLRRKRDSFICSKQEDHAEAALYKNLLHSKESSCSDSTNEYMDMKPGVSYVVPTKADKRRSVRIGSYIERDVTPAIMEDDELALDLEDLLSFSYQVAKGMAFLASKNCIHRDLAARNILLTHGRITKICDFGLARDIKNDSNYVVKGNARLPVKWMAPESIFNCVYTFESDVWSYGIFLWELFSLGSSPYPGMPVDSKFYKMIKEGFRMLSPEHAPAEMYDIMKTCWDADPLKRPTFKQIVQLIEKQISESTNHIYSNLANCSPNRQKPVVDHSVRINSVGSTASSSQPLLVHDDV
# UniProt Q9HBH9, sequence (whole entry, looked up): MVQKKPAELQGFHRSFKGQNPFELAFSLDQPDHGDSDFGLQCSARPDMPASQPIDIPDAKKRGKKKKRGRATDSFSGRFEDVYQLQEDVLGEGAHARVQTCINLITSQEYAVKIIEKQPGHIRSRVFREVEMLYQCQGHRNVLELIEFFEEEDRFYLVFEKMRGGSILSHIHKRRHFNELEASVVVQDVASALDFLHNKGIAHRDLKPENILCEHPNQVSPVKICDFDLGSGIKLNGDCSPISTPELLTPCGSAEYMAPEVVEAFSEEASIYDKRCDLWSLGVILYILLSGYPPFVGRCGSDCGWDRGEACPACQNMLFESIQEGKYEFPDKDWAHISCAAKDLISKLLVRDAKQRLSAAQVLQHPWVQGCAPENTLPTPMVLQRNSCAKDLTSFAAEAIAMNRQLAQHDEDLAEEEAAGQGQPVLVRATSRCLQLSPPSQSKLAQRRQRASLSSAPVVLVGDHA
# UniProt Q16816, sequence (whole entry, looked up): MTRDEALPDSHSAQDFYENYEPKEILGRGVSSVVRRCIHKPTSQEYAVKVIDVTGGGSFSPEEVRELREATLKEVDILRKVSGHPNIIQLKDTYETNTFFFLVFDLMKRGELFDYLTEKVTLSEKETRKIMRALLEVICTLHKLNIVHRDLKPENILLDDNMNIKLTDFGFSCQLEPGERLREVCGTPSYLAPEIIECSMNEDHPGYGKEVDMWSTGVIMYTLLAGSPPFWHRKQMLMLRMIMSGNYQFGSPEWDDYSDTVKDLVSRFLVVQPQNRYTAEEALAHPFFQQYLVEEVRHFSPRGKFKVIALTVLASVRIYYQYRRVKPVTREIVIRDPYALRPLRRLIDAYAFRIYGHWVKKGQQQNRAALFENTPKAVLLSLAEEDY

# Set 1
# SMILES: O=C(O)c1cc(-c2ccc(C3CCNCC3)cc2)c2ccc(-c3ccc(C(F)(F)F)cc3)cc2c1
# Read-out: cell-free assay
# Method: competition with immobilised ligand
# Concentration: 1 µM
target,remaining binding [%]
"RAC-gamma serine/threonine-protein kinase (AKT3, Homo sapiens, UniProt Q9Y243)",100
"Phosphorylase b kinase gamma catalytic chain, skeletal muscle/heart isoform (PHKG1, Homo sapiens, UniProt Q16816)",100
"Tyrosine-protein kinase receptor Tie-1 (TIE1, Homo sapiens, UniProt P35590)",100
"Serine/threonine-protein kinase WNK2 (WNK2, Homo sapiens, UniProt Q9Y3S1)",100
"Calcium/calmodulin-dependent protein kinase kinase 1 (CAMKK1, Homo sapiens, UniProt Q8N5S9)",100
"Phosphatidylinositol 4,5-bisphosphate 3-kinase catalytic subunit alpha isoform (PIK3CA, Homo sapiens, UniProt P42336)",100
"G protein-coupled receptor kinase 3 (GRK3, Homo sapiens, UniProt P35626)",68
"Serine/threonine-protein kinase Nek9 (NEK9, Homo sapiens, UniProt Q8TD19)",100
"Proto-oncogene tyrosine-protein kinase receptor Ret (RET, Homo sapiens, UniProt P07949)",90
"Serine/threonine-protein kinase SIK3 (SIK3, Homo sapiens, UniProt Q9Y2K2)",100
"Proto-oncogene tyrosine-protein kinase ROS (ROS1, Homo sapiens, UniProt P08922)",100
"Dual specificity protein kinase CLK3 (CLK3, Homo sapiens, UniProt P49761)",100

# Set 2
# Structure (SMILES): O=S(=O)(NCCNC/C=C/c1ccc(Br)cc1)c1cccc2cnccc12
# Read-out: enzyme activity
# Action: inhibitor
# Concentration: 0.5 µM
# Reference: control
target,remaining activity [%]
"RAC-gamma serine/threonine-protein kinase (AKT3, Homo sapiens, UniProt Q9Y243)",69
"MAP kinase-interacting serine/threonine-protein kinase 2 (MKNK2, Homo sapiens, UniProt Q9HBH9)",78.7
"Tyrosine-protein kinase BTK (BTK, Homo sapiens, UniProt Q06187)",97.4
"Mast/stem cell growth factor receptor Kit (KIT, Homo sapiens, UniProt P10721)",101
"Mitogen-activated protein kinase kinase kinase kinase 2 (MAP4K2, Homo sapiens, UniProt Q12851)",51.1
"Cyclin-dependent kinase 9, with cyclin T1 (CDK9, Homo sapiens, UniProt P50750)",87.8
"Casein kinase I isoform alpha (CSNK1A1, Homo sapiens, UniProt P48729)",57.9
"Ephrin type-A receptor 5 (EPHA5, Homo sapiens, UniProt P54756)",96.9
"cGMP-dependent protein kinase 1 (PRKG1, Homo sapiens, UniProt Q13976)",26.3
"Protein kinase C iota type (PRKCI, Homo sapiens, UniProt P41743)",88.4

# Set 3
# Target: Synaptic vesicular amine transporter (SLC18A2, Homo sapiens, UniProt Q05940)
# UniProt Q05940, sequence (whole entry, looked up): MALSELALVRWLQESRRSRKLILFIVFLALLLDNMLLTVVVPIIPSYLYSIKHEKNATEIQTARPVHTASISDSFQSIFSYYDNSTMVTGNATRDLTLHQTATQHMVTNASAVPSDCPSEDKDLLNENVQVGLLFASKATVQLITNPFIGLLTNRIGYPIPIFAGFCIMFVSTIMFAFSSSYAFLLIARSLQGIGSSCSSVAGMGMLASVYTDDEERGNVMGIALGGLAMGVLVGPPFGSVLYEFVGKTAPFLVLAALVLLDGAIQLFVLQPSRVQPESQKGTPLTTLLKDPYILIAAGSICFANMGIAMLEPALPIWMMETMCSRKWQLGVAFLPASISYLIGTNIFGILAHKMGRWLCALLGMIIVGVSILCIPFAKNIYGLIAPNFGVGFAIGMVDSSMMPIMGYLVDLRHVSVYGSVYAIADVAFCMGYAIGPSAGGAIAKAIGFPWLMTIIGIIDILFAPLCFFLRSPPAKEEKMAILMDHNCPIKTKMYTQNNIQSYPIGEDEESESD
# Read-out: transporter inhibition
# Action: inhibitor
Structure (SMILES),IC50 [µM]
C#CCN[C@@H]1CCc2ccccc21,> 10
CN(C)C(=O)N[C@H]1CC[C@H](CCN2CCN(c3cccc(Cl)c3Cl)CC2)CC1,0.845
Cc1ccccc1N1CCN(CCc2nnc3n2CCCC3)CC1,0.566
OC(CCN1CCCCC1)(c1ccccc1)C1CCCCC1 (stereo not drawn),5.54
NC(=O)c1cccc2cn(-c3ccc([C@@H]4CCCNC4)cc3)nc12,6.1
OCCOCCN1CCN(C2=Nc3ccccc3Sc3ccccc32)CC1,> 10
CC(C)NCC(O)COc1ccc(CCOCC2CC2)cc1 (stereo not drawn),9.8

# Mixed results
Structure (SMILES),cell line,concentration,time,together with,measurement,result
O=C1CCC(N2Cc3cc(C4CCN(Cc5ccccc5)CC4)ccc3C2=O)C(=O)N1 (stereo not drawn),Jurkat,1000 nM,24 h,CD3/CD28 beads 1:4,IL-2 level,172 pg/mL and 190 pg/mL and 194 pg/mL
